Results gathered from unrelated publications.
Every numbered part comes from another study and shows a few of its results, in no order.

Series 1 — technique: protein-binding microarray; molecule type: double-stranded DNA, one strand shown; sample: in vitro; concentration: 2200 nM top; notes: 60-bp whole probe; together with: salmon DNA 0.4 mg/ml; reference: random background probes; direction: higher = stronger binding; shared flanks, not repeated: GCCTAGCAC … GTCTTGATTCGCTTGACGCTGCTG
Target: Interferon regulatory factor 7, full length, phosphomimetic (IRF7, Homo sapiens, UniProt Q92985, residues 1-503, S471D/S472D/S475D/S476D/S477D/S483D/S484D/S487D)
Residues (chain): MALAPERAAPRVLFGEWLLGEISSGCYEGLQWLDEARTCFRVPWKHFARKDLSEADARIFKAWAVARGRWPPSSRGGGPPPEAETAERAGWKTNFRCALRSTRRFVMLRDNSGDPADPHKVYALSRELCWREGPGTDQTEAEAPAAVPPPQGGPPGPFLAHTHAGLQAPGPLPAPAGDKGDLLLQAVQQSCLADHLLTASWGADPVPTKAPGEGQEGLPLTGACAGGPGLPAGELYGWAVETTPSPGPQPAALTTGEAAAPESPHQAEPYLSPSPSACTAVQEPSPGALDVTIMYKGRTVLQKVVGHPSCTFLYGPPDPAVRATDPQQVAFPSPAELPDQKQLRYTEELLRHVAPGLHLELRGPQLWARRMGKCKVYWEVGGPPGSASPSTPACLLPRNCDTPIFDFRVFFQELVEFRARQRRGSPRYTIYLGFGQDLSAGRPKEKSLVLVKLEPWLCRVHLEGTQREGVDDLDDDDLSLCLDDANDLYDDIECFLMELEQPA
Sequence | fitted relative affinity [z-score]
ATAGGTCTCGGTTTCGGTTAGTGCTAG | 7.35
TGAGAACTGAGTTTCGATTAGTGCTAG | 3.46
AACAATATATATATTATATAGTGCTAG | -0.228
TTAGGTCTCGGTCTCTGTTAGTGCTAG | 1.1
GACGGAATGGGGTATCGGGACGTGCTA | -0.298
TTAGGCCTCGGTTTCGGTTAGTGCTAG | 5.96
TTAGGTCTCGGACTGGTTTAGTGCTAG | 0.00816
TTAGAACTGGCGTATCGATTAGTGCTA | -0.771
TTAGAATTGAGTCTCGATTAGTGCTAG | -0.376
TCATTTTTAGATTTTTTACTGTGCTAG | 1.24

Series 2 — technique: RNA Bind-n-Seq; molecule type: RNA; sample: in vitro; concentration: 1 µM; notes: whole 134-nt RNA, ends assumed; together with: 150 mM KCl; reference: input library; direction: higher = stronger binding
Target: Ras GTPase-activating protein-binding protein 1, C-terminal RGG region (G3BP1, Homo sapiens, UniProt Q13283)
Chain of UniProt Q13283 (whole entry, looked up): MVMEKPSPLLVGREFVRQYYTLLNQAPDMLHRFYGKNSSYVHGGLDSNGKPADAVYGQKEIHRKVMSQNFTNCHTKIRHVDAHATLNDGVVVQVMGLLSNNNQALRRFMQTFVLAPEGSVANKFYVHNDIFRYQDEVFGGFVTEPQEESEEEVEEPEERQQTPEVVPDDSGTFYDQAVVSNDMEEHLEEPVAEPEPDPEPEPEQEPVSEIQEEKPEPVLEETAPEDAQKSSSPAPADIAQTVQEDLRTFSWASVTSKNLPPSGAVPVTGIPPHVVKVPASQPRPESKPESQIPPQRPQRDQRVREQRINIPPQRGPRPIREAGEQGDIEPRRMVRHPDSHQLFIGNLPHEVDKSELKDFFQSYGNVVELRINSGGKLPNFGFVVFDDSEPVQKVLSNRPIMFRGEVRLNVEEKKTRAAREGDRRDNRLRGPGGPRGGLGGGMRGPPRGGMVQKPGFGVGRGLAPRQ
Sequence | log2 enrichment
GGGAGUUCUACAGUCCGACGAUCAGUCCUGUGCUACACAUCGUAUGUACCGAAUCAAAUUUAAAUUUUUUUAAACCCAAAAAAGUAUUAUGUUACGCCGUUCGGAUCUGCACUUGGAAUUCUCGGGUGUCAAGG | -1.35
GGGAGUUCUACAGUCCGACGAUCAGUCCUGUGCUACACAUCGUAUGUACCGAAUCAAAUUUUUUUAAACCCAAACCCAAAAAAGUAUUAUGUUACGCCGUUCGGAUCUGCACUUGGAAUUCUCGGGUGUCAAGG | -1.15
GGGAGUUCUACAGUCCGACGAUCCCUCAAGUCCUGUGCUACACAUCGUAUGUACCGAAUCGGCCGGCCGGGCCGGAAAGUAUUAUGUUACGCCGUUCGGAUCUGCACUUCCAGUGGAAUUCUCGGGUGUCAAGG | -1.17
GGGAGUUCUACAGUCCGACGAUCUGGCCCUGGUGGCAUGCGGGGAGGAAGAGGUGGCCUCAUGGAGCGUGGUGGUCCCGGUGGAAUGUUCAGAGGUGGCCGUGGUGGAGACAGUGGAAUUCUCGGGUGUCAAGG | 2.23
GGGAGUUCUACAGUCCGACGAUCAGUCCUGUGCUACACAUCGUAUGUACCGAAUCGGGUUUUUGGGGUUUUUGGUUUUUGGAAAGUAUUAUGUUACGCCGUUCGGAUCUGCACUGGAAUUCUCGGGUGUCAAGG | -1.27

Series 3 — technique: universal PBM; molecule type: double-stranded DNA, one strand shown; sample: in vitro; concentration: not given; direction: higher = stronger binding
Target: Sal-like protein 4, full length isoform B (SALL4, Homo sapiens, UniProt Q9UJQ4-2, residues 1-616)
Notes: 8-mer, flanks averaged, mean of replicates
Construct (chain): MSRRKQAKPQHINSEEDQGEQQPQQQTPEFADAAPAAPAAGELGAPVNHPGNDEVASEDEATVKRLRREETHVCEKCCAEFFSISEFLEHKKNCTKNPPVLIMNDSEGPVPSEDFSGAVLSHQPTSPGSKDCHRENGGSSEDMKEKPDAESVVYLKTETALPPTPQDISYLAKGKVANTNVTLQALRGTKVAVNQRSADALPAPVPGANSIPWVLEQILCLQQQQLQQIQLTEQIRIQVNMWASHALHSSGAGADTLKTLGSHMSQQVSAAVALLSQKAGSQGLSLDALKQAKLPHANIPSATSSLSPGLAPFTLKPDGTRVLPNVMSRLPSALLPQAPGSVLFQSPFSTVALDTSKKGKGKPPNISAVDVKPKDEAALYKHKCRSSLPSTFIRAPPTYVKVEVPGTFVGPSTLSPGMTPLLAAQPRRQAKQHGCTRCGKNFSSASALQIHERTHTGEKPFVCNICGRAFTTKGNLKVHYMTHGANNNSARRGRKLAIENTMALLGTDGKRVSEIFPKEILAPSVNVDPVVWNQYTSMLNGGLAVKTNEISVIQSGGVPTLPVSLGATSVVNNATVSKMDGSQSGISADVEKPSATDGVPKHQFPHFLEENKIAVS
Sequence | E-score
AGAAATCG | -0.0262
GAGCCTGA | -0.222
GAAAGGTA | 0.164
ATAACTGA | 0.2
ACGTCCGG | -0.279
CTCCCAAG | -0.061
CGTCCATC | -0.0599
AAGTTCTA | 0.132
AATACGGA | 0.201
AAGTAAGC | 0.0866
GCATCTCA | 0.0646
GCCCCCAA | -0.0501

Series 4 — technique: protein binding microarray; molecule type: double-stranded DNA, one strand shown; sample: in vitro; concentration: not given; reference: not given; direction: higher = stronger binding
Target: Histone acetyltransferase KAT6A, both winged helices, GST fusion (KAT6A, Homo sapiens, UniProt Q92794, residues 1-181)
Notes: 8-mer, flanks averaged, mean of 2 arrays, mostly near background
Construct (chain): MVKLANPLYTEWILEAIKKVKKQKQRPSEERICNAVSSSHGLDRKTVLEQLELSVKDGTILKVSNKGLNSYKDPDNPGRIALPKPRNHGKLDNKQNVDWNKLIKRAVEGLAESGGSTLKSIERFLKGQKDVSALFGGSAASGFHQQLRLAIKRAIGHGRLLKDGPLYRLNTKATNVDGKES
Sequence | E-score
CCGAGTAG | -0.0517
CCAGGATC | -0.136
AATAAGCT | -0.0277
CCGCGGTC | 0.355
CCGAAGCA | -0.0191
ATCATTCA | 0.0792
CTTCATTC | -0.108
AAGGATAC | -0.000205
CGCAGAAG | 0.128
TCCATTAA | -0.0377
GTCCGACA | 0.165
AATCACCG | 0.166
TAGTGTGA | -0.146
CTGTCCCC | -0.124
ACCAGCGG | 0.235
TCATAAGA | -0.0851
AAAGTCGT | -0.108
AAGCAACT | -0.175
